# Assay results collected from several papers.
# ± gives the spread as reported.
# Neuronal acetylcholine receptor; alpha3/beta4: Neuronal acetylcholine receptor; alpha3/beta4 (Rattus norvegicus, UniProt P04757+P12392)
# UniProt P12392, sequence (whole entry, looked up): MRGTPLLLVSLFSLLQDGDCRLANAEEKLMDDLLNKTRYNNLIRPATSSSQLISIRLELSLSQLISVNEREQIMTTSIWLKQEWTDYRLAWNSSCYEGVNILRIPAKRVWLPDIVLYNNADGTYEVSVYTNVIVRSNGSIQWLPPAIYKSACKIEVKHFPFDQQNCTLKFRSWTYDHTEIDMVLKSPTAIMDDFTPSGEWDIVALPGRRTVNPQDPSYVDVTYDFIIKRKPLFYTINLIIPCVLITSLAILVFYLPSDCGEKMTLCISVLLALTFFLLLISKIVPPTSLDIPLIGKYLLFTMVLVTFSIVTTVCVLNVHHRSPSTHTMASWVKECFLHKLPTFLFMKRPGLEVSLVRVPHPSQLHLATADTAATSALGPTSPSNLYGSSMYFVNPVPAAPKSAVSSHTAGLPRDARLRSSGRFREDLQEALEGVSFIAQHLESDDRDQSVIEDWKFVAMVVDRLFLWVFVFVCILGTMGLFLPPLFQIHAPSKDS
# UniProt P04757, sequence (whole entry, looked up): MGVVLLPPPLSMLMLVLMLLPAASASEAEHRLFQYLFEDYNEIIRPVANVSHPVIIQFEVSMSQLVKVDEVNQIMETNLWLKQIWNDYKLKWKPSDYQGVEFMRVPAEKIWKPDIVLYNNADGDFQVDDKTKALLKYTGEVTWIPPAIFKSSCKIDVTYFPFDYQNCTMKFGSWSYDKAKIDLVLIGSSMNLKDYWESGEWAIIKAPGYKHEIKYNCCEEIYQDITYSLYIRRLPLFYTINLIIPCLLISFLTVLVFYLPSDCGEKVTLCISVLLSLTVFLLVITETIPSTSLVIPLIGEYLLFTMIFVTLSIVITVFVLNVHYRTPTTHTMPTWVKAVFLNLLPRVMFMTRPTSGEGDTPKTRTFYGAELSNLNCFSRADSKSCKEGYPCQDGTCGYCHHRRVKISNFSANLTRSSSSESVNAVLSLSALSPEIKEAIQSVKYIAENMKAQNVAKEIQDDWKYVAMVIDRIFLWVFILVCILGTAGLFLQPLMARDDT
# UniProt Q9JLB5, sequence (whole entry, looked up): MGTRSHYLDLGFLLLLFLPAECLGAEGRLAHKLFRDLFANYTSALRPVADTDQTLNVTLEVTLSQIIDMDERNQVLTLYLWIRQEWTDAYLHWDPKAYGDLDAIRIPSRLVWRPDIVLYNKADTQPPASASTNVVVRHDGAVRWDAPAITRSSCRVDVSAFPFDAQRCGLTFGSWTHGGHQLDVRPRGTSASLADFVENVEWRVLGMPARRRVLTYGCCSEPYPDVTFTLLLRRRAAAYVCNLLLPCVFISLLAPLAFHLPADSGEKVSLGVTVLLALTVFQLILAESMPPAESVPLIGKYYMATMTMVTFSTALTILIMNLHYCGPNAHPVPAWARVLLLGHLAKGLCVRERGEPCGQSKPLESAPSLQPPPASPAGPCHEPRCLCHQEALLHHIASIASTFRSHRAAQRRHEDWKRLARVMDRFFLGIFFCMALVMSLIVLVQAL
# UniProt P43144, sequence (whole entry, looked up): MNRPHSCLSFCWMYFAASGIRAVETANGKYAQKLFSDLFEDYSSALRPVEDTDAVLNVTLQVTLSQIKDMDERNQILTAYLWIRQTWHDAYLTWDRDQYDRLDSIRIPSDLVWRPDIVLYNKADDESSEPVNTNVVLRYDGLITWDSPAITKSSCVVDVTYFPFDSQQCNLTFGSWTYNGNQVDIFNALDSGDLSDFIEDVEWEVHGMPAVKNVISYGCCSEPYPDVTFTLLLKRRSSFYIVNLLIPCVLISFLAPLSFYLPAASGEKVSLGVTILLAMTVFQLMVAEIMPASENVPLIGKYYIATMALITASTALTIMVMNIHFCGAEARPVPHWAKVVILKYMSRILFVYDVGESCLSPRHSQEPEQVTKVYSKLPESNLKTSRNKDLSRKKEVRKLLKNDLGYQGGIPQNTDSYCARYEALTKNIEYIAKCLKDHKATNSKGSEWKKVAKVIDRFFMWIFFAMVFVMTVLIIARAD
# UniProt P43143, sequence (whole entry, looked up): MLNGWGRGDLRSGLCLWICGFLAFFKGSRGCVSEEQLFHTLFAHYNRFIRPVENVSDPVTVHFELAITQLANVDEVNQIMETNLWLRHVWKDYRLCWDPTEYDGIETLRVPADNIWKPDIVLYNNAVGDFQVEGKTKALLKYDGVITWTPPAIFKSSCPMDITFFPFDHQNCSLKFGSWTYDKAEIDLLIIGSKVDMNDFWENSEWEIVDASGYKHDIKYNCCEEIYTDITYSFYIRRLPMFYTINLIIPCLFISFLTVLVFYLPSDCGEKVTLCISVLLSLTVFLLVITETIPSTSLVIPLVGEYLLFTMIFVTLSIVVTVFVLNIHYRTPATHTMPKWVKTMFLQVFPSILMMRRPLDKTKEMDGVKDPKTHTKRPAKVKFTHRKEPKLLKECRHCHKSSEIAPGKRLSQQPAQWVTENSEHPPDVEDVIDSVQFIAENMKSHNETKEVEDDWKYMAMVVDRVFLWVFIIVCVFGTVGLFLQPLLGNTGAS
# UniProt Q05941, sequence (whole entry, looked up): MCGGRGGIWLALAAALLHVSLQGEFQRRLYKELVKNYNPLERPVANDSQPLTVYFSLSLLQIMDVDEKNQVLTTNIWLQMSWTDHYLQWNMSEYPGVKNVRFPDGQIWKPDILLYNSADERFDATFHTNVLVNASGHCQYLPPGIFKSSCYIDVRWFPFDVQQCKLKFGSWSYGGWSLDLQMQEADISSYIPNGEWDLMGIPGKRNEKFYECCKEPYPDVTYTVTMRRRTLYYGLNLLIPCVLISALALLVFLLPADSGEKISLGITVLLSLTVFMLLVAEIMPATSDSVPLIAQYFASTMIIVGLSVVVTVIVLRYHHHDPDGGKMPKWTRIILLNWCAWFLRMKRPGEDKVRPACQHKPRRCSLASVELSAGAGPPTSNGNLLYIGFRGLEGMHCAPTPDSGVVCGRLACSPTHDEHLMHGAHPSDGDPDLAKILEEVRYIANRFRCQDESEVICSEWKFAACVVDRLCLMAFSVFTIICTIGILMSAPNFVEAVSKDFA
SMILES,target,assay,system,conditions,measurement,value
O=C(N/N=C/c1cc(Br)cc(Br)c1O)c1cccnc1,"tpx (Yersinia pseudotuberculosis, UniProt Q66A71)",,,,Kd,51 µM
CC[C@H](C)[C@@H]1NC(=O)[C@H](CC(=O)O)NC(=O)[C@@H]2CCCN2C(=O)[C@H](CC(N)=O)NC(=O)[C@H](CCC(N)=O)NC(=O)[C@H](CC(C)C)NC(=O)[C@H]([C@@H](C)CC)NC(=O)[C@@H]2CSSC[C@H](NC(=O)[C@@H](N)CC(=O)O)C(=O)N[C@@H](CSSC[C@@H](C(N)=O)NC1=O)C(=O)N[C@@H](CO)C(=O)N[C@@H](C)C(=O)N1CCC[C@H]1C(=O)N1CCC[C@H]1C(=O)N2,"Nicotinic acetylcholine receptor alpha9/alpha10 (Rattus norvegicus, UniProt P43144+Q9JLB5)",,rat cells,,IC50,> 10 µM
CC[C@H](C)[C@@H]1NC(=O)[C@@H]2CCCN2C(=O)[C@H](CO)NC(=O)[C@H](CCSC)NC(=O)[C@H](C)NC(=O)[C@H](CO)NC(=O)[C@@H]2CSSC[C@H](NC(=O)CN)C(=O)N[C@@H](CSSC[C@@H](C(N)=O)NC1=O)C(=O)N[C@@H](C)C(=O)N[C@@H](Cc1c[nH]cn1)C(=O)N1CCC[C@H]1C(=O)N[C@@H](C(C)C)C(=O)N2,"Nicotinic acetylcholine receptor alpha6/alpha3/beta4 (Rattus norvegicus, UniProt P04757+P12392+P43143)","receptor current, antagonist",rat,,Hill slope,0.87
CCC[C@@H]1NC(=O)[C@H](CC)NC(=O)[C@H](Cc2ccccc2)NC(=O)[C@@H]2CSSC[C@H](NC(=O)CN)C(=O)N[C@@H](CSSC[C@@H](C(N)=O)NC(=O)[C@H](Cc3ccc(O)cc3)NC1=O)C(=O)N[C@@H](CO)C(=O)N[C@@H](Cc1c[nH]cn1)C(=O)N1CCC[C@H]1C(=O)N1CCC[C@H]1C(=O)N2,"Chrna7 (Rattus norvegicus, UniProt Q05941)",,cells,10 µM,inhibition,49.8 ± 3.2%
CC[C@H](C)[C@@H]1NC(=O)[C@@H]2CCCN2C(=O)[C@H](C)NC(=O)[C@H](CCSC)NC(=O)[C@H](C)NC(=O)[C@H](CO)NC(=O)[C@@H]2CSSC[C@H](NC(=O)CN)C(=O)N[C@@H](CSSC[C@@H](C(N)=O)NC1=O)C(=O)N[C@@H](CO)C(=O)N[C@@H](Cc1c[nH]cn1)C(=O)N1CCC[C@H]1C(=O)N[C@@H](C(C)C)C(=O)N2,Neuronal acetylcholine receptor; alpha3/beta4,"receptor current, antagonist",rat,,Hill slope,1.12
C[C@H](NC(=O)c1cccc2nc(-c3cncc4ccccc34)n(CCCC(=O)NCCOCCNC(=O)c3ccc(C4=c5cc6c(cc5Oc5cc7c(cc54)C(CS(=O)(=O)O)=CC(C)(C)N7C)=[N+](C)C(C)(C)C=C6CS(=O)(=O)[O-])c(C(=O)O)c3)c12)c1ccc2ccccc2c1,"Spike glycoprotein, receptor-binding domain (Severe acute respiratory syndrome coronavirus 2, UniProt P0DTC2)",binding,,,Kd,> 1.5 µM
CCC[C@@H]1NC(=O)[C@H](CC)NC(=O)[C@H](Cc2ccccc2)NC(=O)[C@@H]2CSSC[C@H](NC(=O)CN)C(=O)N[C@@H](CSSC[C@@H](C(N)=O)NC(=O)[C@H](Cc3ccc(O)cc3)NC1=O)C(=O)N[C@@H](CO)C(=O)N[C@@H](Cc1c[nH]cn1)C(=O)N1CCC[C@H]1C(=O)N[C@@H](CC)C(=O)N2,Neuronal acetylcholine receptor; alpha3/beta4,,cells,0.01 µM,inhibition,75%

# Repeated from above:
SMILES,target,assay,system,conditions,measurement,value
CC[C@H](C)[C@@H]1NC(=O)[C@H](CC(=O)O)NC(=O)[C@@H]2CCCN2C(=O)[C@H](CC(N)=O)NC(=O)[C@H](CCC(N)=O)NC(=O)[C@H](CC(C)C)NC(=O)[C@H]([C@@H](C)CC)NC(=O)[C@@H]2CSSC[C@H](NC(=O)[C@@H](N)CC(=O)O)C(=O)N[C@@H](CSSC[C@@H](C(N)=O)NC1=O)C(=O)N[C@@H](CO)C(=O)N[C@@H](C)C(=O)N1CCC[C@H]1C(=O)N1CCC[C@H]1C(=O)N2,"Nicotinic acetylcholine receptor alpha9/alpha10 (Rattus norvegicus, UniProt P43144+Q9JLB5)",,rat cells,,IC50,> 10 µM
